Results gathered from unrelated publications.
Numbers after ± are the reported error.

CN[C@H](CC(C)C)C(=O)N[C@H]1C(=O)N[C@@H](CC(N)=O)C(=O)N[C@H]2C(=O)N[C@H]3C(=O)N[C@H](C(=O)N[C@H](C(=O)O)c4cc(O)cc(O)c4-c4cc3ccc4O)[C@H](O)c3ccc(c(Cl)c3)Oc3cc2cc(c3O[C@@H]2O[C@H](CO)[C@@H](O)[C@H](O)[C@H]2O[C@H]2C[C@](C)(N)[C@H](O)[C@H](C)O2)Oc2ccc(cc2Cl)[C@H]1O
MIC (Enterococcus faecium; vancomycin-sensitive ATCC BAA-2127; 20 h): 1 µg/mL

actinomycin Y3
MIC (Mycolicibacterium aurum; broth microdilution; ATCC 23366; 16 to 48 h): > 9.33 µg/mL

CN[C@@H]1[C@H](O)[C@H](NC)[C@H]2O[C@@]3(O)C(=O)C[C@@H](C)O[C@H]3O[C@@H]2[C@H]1O
MIC (Mycobacteroides abscessus; ATCC 19977 ∆whiB7 ∆tap; 120 h): 32 to 64 µg/mL

CC(C)[C@H](N)C(=O)N[C@@H](CS)C(=O)N1CCC[C@H]1C(=O)N[C@@H](Cc1c[nH]cn1)C(=O)N[C@@H](CCCNC(=N)N)C(=O)N[C@@H](CS)C(=O)O
MIC (Streptococcus pyogenes; broth microdilution; MTCC 442; 37 °C): 45 µg/mL

CC[C@H](C)[C@H](NC(=O)[C@H](CCCNC(=N)N)NC(=O)[C@H](CCCCN)NC(=O)[C@H](CC(C)C)NC(=O)[C@H](CC(C)C)NC(=O)CN)C(=O)N[C@@H](CCCCN)C(=O)N[C@H](C(=O)N[C@@H](CC(C)C)C(=O)N[C@@H](CC(C)C)C(N)=O)[C@@H](C)O
MIC (Staphylococcus epidermidis; ATCC 12228; 18 to 20 h): 8 µM

CC[C@H](C)[C@H](NC(=O)[C@@H]1CCCN1C(=O)[C@H](CCCCN)NC(=O)[C@@H]1CCCN1C(=O)[C@@H]1CCCN1C(=O)[C@@H](NC(=O)[C@@H]1CCCN1C(=O)[C@H](CCCNC(=N)N)NC(=O)[C@@H]1CCCN1C(=O)[C@H](CCCCN)NC(=O)[C@H](Cc1ccc(O)cc1)NC(=O)[C@H](CO)NC(=O)CNC(=O)[C@H](CCCCN)NC(=O)[C@H](CC(=O)O)NC(=O)[C@@H](N)C(C)C)[C@@H](C)O)C(=O)N[C@@H](Cc1ccc(O)cc1)C(=O)N[C@@H](CC(N)=O)C(=O)N[C@@H](CCCNC(=N)N)C(=O)N[C@@H](CC(N)=O)C(=O)O
MIC (Salmonella enterica; serovar Infantis #129 B; 18 h, 37 °C, 12.5% Mueller-Hinton broth): 0.3 ± 0.07 µM

CC(C)C[C@H](NC(=O)[C@H](CCCCN)NC(=O)[C@H](C)NC(=O)[C@H](CC(C)C)NC(=O)[C@H](CCCCN)NC(=O)[C@H](CCCCN)NC(=O)[C@H](C)NC(=O)[C@H](CC(C)C)NC(=O)[C@H](CCCCN)NC(=O)[C@H](C)NC(=O)[C@H](CC(C)C)NC(=O)[C@@H](N)CCCCN)C(=O)N[C@@H](C)C(=O)N[C@@H](CCCCN)C(N)=O
MIC (Staphylococcus epidermidis; ATCC 12228; 18 to 20 h): 4 µM

LSTFFRLFNGRRRRSVQWCA
MIC (Streptococcus mutans; broth microdilution; peptide, GS-5; 24 h, 37 °C, planktonic, anaerobic): 13.3 ± 4 µg/mL

CC[C@H](C)C[C@H](C)CCCCCCCCC(=O)N[C@H]1C[C@@H](O)[C@@H](NCCN)NC(=O)[C@@H]2[C@@H](O)CCN2C(=O)[C@H]([C@H](O)CCN)NC(=O)[C@H]([C@H](O)[C@@H](O)c2ccc(O)cc2)NC(=O)[C@@H]2C[C@@H](O)CN2C(=O)[C@H]([C@@H](C)O)NC1=O
MIC (Candida parapsilosis; ATCC 90018, RPMI 1640, 0.165 M MOPS; 24 h, 35 °C, 100% inhibition endpoint): 1.6 µg/mL

Cc1ccc(OCc2n(CC(=O)OC3CC(C)CCC3C(C)C)c3ccccc3[n+]2C)cc1 (centres unmarked)
MIC (Mycolicibacterium smegmatis; microbial growth): 5 µM

TFFRLFNRGRRRRSVQWCA
MIC (Streptococcus mutans; broth microdilution; peptide, GS-5; 24 h, 37 °C, planktonic, anaerobic): 12.4 ± 4.22 µg/mL

RXRRXRRXRRXRXB (peptide-PNA conjugate)
MIC (Streptococcus pyogenes; broth microdilution; peptide; 0.02% acetic acid, 0.4% BSA): 62.5 µM

COc1cc(OC)cc(C(=O)N/N=C/c2ccccc2Cl)c1
MIC (Staphylococcus aureus, Bacillus subtilis, Escherichia coli; bacterial growth; 24 h): 38.9 µM

Cc1ncc([N+](=O)[O-])n1CCO
MIC (Bacteroides fragilis; nim-negative strains incl. ATCC 25285): 8 to 256 µg/mL

CC[C@H](C)[C@H](NC(=O)[C@H](CCCNC(=N)N)NC(=O)CNC(=O)[C@H](CC(C)C)NC(=O)[C@H](Cc1ccccc1)NC(=O)[C@H](CCC(N)=O)NC(=O)[C@H](Cc1ccccc1)NC(=O)[C@@H](N)C(C)C)C(=O)N[C@H](C(=O)N[C@@H](Cc1c[nH]cn1)C(=O)N[C@@H](Cc1c[nH]cn1)C(=O)N[C@H](C(=O)NCC(=O)N[C@@H](CC(N)=O)C(=O)N[C@@H](Cc1ccccc1)C(=O)N[C@H](C(=O)N[C@@H](Cc1c[nH]cn1)C(=O)NCC(=O)N[C@@H](Cc1ccccc1)C(=O)N[C@@H](CO)C(=O)N[C@@H](Cc1c[nH]cn1)C(=O)N[C@H](C(=O)N[C@@H](Cc1ccccc1)C(N)=O)C(C)C)C(C)C)C(C)C)[C@@H](C)CC
MIC (Enterobacter cloacae; broth microdilution; AR 0136; pH 7.4): > 128 µM

Cc1ccc(C(=O)N/N=C/c2ccccc2Cl)cc1
MIC (Staphylococcus aureus, Bacillus subtilis, Escherichia coli; bacterial growth; 24 h): 45.7 µM

O=CC(/N=N/c1ccc(Cl)cc1)=C(\O)c1cc2ccccc2o1
MIC (Bacillus cereus; microbial growth, broth dilution; UW85; 18 h): 256 µg/mL

CC(C)[C@H](NC(=O)[C@H](CO)NC(=O)[C@H](CCCNC(=N)N)NC(=O)[C@H](CCCNC(=N)N)NC(=O)[C@H](CCCNC(=N)N)NC(=O)[C@H](CCCNC(=N)N)NC(=O)CN)C(=O)N[C@@H](CCC(N)=O)C(=O)N[C@@H](Cc1c[nH]c2ccccc12)C(=O)N[C@@H](CS)C(=O)N[C@@H](C)C(=O)O
MIC (Streptococcus mutans; broth microdilution; UA159; 24 h, planktonic anaerobic): 37.3 ± 13.1 µg/mL

Cc1ccc(C(=O)N/N=C/c2ccccc2)cc1
MIC (Aspergillus niger; microbial growth, broth dilution; 7 days): 13.2 µM

NCC[C@H](O)C(=O)N[C@@H]1C[C@H](N)[C@@H](O[C@H]2O[C@H](CN)[C@@H](O)[C@H](O)[C@H]2O)[C@H](O)[C@H]1O[C@H]1O[C@H](CO)[C@@H](O)[C@H](N)[C@H]1O
MIC (Mycobacteroides abscessus; ATCC 19977 ∆tap; 120 h): 2 µg/mL

CCCCCCCCCCCCCCCC(=O)N/N=C/c1ccccc1
MIC (Staphylococcus aureus, Bacillus subtilis, Escherichia coli; bacterial growth; 24 h): 33.9 µM

CC[C@H](C)[C@H](NC(=O)[C@@H]1CCCN1C(=O)[C@H](CCCNC(=N)N)NC(=O)[C@@H]1CCCN1C(=O)[C@@H]1CCCN1C(=O)[C@@H](NC(=O)[C@@H]1CCCN1C(=O)[C@H](CCCNC(=N)N)NC(=O)[C@@H]1CCCN1C(=O)[C@H](CC(C)C)NC(=O)[C@H](Cc1ccc(O)cc1)NC(=O)[C@H](CO)NC(=O)CNC(=O)[C@H](CCCCN)NC(=O)[C@H](CC(=O)O)NC(=O)[C@@H](N)C(C)C)[C@@H](C)O)C(=O)N[C@@H](Cc1ccc(O)cc1)C(=O)N[C@@H](CC(N)=O)C(=O)N[C@@H](CCCNC(=N)N)C(=O)N[C@@H](CC(N)=O)C(=O)O
MIC (Salmonella enterica; serovar Tennessee; 18 h, 37 °C, 12.5% Mueller-Hinton broth): > 0.6 µM

CC(C)C[C@H](NC(=O)[C@H](CCCNC(=N)N)NC(=O)[C@H](C)NC(=O)[C@@H](NC(=O)[C@H](CC(C)C)NC(=O)[C@H](Cc1c[nH]cn1)NC(=O)[C@H](CC(C)C)NC(=O)[C@@H](NC(=O)[C@@H](N)CO)[C@@H](C)O)C(C)C)C(=O)N[C@@H](CCCNC(=N)N)C(=O)NCC(=O)NCC(=O)O
MIC (Mycolicibacterium smegmatis; mc2 155; 37 °C, ≥90% viability decrease): 100 µM

Cc1n(CC(=O)OC2CC(C)CCC2C(C)C)c2ccccc2[n+]1C (centres unmarked)
MIC (Mycolicibacterium smegmatis; microbial growth): 25 µM

C[C@@H](O)[C@H]1C(=O)N2C(C(=O)O)=C(SCCN=CN)C[C@H]12
MIC (Acinetobacter baumannii; broth microdilution; ATCC 17978 pET-RA-KmR no beta-lactamase; without inhibitor): 0.5 µg/mL

O=C(N/N=C/c1ccccc1Cl)c1cc([N+](=O)[O-])cc([N+](=O)[O-])c1
MIC (Staphylococcus aureus, Bacillus subtilis, Escherichia coli; bacterial growth; 24 h): 35.5 µM

CC[C@H](C)[C@H](NC(=O)CNC(=O)[C@H](CCCNC(=N)N)NC(=O)[C@H](Cc1ccccc1)NC(=O)[C@@H](NC(=O)[C@H](Cc1c[nH]cn1)NC(=O)[C@H](Cc1c[nH]cn1)NC(=O)[C@H](Cc1ccccc1)NC(=O)[C@@H](N)Cc1ccccc1)[C@@H](C)CC)C(=O)N[C@H](C(=O)N[C@@H](Cc1c[nH]cn1)C(=O)N[C@H](C(=O)NCC(=O)N[C@@H](CCCCN)C(=O)N[C@H](C(=O)N[C@@H](CCCCN)C(=O)N[C@@H](Cc1c[nH]cn1)C(=O)N[C@@H](CCCNC(=N)N)C(=O)N[C@@H](CC(C)C)C(=O)N[C@H](C(=O)N[C@H](C(=O)NCC(N)=O)[C@@H](C)O)C(C)C)[C@@H](C)O)C(C)C)C(C)C
MIC (Staphylococcus epidermidis; broth microdilution; ATCC 1435; 18 h, 37 °C): 3.1 µg/mL

TFFRLFNRSFTGRRRRSVQWCA
MIC (Streptococcus mutans; broth microdilution; peptide, GS-5; 24 h, 37 °C, planktonic, anaerobic): 12.4 ± 4.22 µg/mL

C/C=C/C=C/C(=O)N/N=C/c1ccccc1Cl
MIC (Aspergillus niger; microbial growth, broth dilution; 7 days): 31.6 µM

magainin 2
MIC (Porphyromonas gingivalis; serial dilution; ATCC 33277; 24 h, 37 °C): > 100 µg/mL

COC(=O)[C@H](Cc1ccccc1)NC(=O)c1ccc(NC(=O)c2cc(Br)c(Br)[nH]2)c(OCCN)c1
MIC (Enterococcus faecalis; microbial growth, broth dilution; ATCC29212): > 25 µM

CCCCCCCCCCCCCCc1cc(O)cc(O)c1
MIC (Enterococcus faecium; microbial growth, broth dilution; drug-resistant strain): 32 µg/mL

CC(C)C[C@H](NC(=O)[C@H](C)NC(=O)[C@@H](N)CO)C(=O)N[C@@H](Cc1c[nH]cn1)C(=O)N[C@@H](CC(C)C)C(=O)N[C@H](C(=O)N[C@@H](CC(C)C)C(=O)N[C@@H](CCCNC(=N)N)C(=O)N[C@@H](CC(C)C)C(=O)N[C@@H](CCCNC(=N)N)C(=O)NCC(=O)NCC(=O)O)C(C)C
MIC (Mycolicibacterium smegmatis; mc2 155; 37 °C, ≥90% viability decrease): 50 µM

CC[C@H](C)[C@H](NC(=O)[C@@H]1CCCN1C(=O)[C@H](CCCCN)NC(=O)[C@@H]1CCCN1C(=O)[C@@H]1CCCN1C(=O)[C@@H](NC(=O)[C@@H]1CCCN1C(=O)[C@H](CCCNC(=N)N)NC(=O)[C@@H]1CCCN1C(=O)[C@H](CCCNC(=N)N)NC(=O)[C@H](Cc1ccc(O)cc1)NC(=O)[C@H](CO)NC(=O)CNC(=O)[C@H](CCCCN)NC(=O)[C@H](CC(=O)O)NC(=O)[C@@H](N)C(C)C)[C@@H](C)O)C(=O)N[C@@H](Cc1ccc(O)cc1)C(=O)N[C@@H](CC(N)=O)C(=O)N[C@@H](CCCNC(=N)N)C(=O)N[C@@H](CC(N)=O)C(=O)O
MIC (Salmonella enterica; serovar Newport; 18 h, 37 °C, 12.5% Mueller-Hinton broth): 0.037 ± 0.008 µM

O=C(/C=C/c1ccccc1)N/N=C/c1ccccc1Cl
MIC (Staphylococcus aureus, Bacillus subtilis, Escherichia coli; bacterial growth; 24 h): 43.7 µM

C[C@H](N)C(=O)N[C@@H](CS)C(=O)N1CCC[C@H]1C(=O)N[C@@H](Cc1c[nH]cn1)C(=O)N[C@@H](CCCNC(=N)N)C(=O)N[C@@H](CS)C(=O)O
MIC (Streptococcus pyogenes; broth microdilution; MTCC 442; 37 °C): 80 µg/mL

C/C=C/C=C/C(=O)N/N=C/c1ccccc1
MIC (Aspergillus niger; microbial growth, broth dilution; 7 days): 28.8 µM

Cc1ccccc1OCc1n(CC(=O)OC2CC(C)CCC2C(C)C)c2ccccc2[n+]1C (centres unmarked)
MIC (Mycobacteroides abscessus; microbial growth): 26.2 µM

Some of these lines once more:
CC(C)[C@H](NC(=O)[C@H](CO)NC(=O)[C@H](CCCNC(=N)N)NC(=O)[C@H](CCCNC(=N)N)NC(=O)[C@H](CCCNC(=N)N)NC(=O)[C@H](CCCNC(=N)N)NC(=O)CN)C(=O)N[C@@H](CCC(N)=O)C(=O)N[C@@H](Cc1c[nH]c2ccccc12)C(=O)N[C@@H](CS)C(=O)N[C@@H](C)C(=O)O
MIC (Streptococcus mutans; broth microdilution; UA159; 24 h, planktonic anaerobic): 37.3 ± 13.1 µg/mL

Cc1ccc(C(=O)N/N=C/c2ccccc2)cc1
MIC (Aspergillus niger; microbial growth, broth dilution; 7 days): 13.2 µM

NCC[C@H](O)C(=O)N[C@@H]1C[C@H](N)[C@@H](O[C@H]2O[C@H](CN)[C@@H](O)[C@H](O)[C@H]2O)[C@H](O)[C@H]1O[C@H]1O[C@H](CO)[C@@H](O)[C@H](N)[C@H]1O
MIC (Mycobacteroides abscessus; ATCC 19977 ∆tap; 120 h): 2 µg/mL

CCCCCCCCCCCCCCCC(=O)N/N=C/c1ccccc1
MIC (Staphylococcus aureus, Bacillus subtilis, Escherichia coli; bacterial growth; 24 h): 33.9 µM
